Measured values from different studies.
Every numbered part comes from another study and shows a few of its results, in no order. “And” joins repeats or separate records; there may be more than shown.

Set 1
Compound: Cc1cc(-c2cnc(N)c3c(-c4ccc5scnc5c4)csc23)n(C)n1
Target: Receptor-interacting serine/threonine-protein kinase 3 (RIPK3, Homo sapiens, UniProt Q9Y572)
Chain of UniProt Q9Y572 (whole entry, looked up): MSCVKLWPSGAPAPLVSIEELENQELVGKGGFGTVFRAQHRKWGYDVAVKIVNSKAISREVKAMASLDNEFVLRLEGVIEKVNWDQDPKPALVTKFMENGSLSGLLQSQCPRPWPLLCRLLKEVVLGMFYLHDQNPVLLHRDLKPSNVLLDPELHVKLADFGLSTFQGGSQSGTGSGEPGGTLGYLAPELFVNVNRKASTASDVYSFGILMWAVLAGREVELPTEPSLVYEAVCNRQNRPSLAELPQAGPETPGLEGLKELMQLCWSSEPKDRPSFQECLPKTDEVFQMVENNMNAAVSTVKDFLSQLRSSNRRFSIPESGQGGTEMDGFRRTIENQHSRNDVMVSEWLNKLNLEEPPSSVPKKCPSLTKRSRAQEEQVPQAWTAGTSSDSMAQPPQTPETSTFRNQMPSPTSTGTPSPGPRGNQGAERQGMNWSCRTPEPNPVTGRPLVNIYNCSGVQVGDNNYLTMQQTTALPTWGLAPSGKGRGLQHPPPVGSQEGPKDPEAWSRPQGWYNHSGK
Effect on: kinase activity
Action: inhibitor
Method: ADP-Glo
Time: 1 h
setting | inhibition
6.25 nM | 15%
25 nM | 32%
200 nM | 88.6%
50 nM | 47.6%
0.781 nM | 22.4%
400 nM | 86.6%
100 nM | 66.3%

Set 2
SMILES: C[C@@H]1CN(c2ccc(-c3cc(C(=O)NCCOCCOCCOCCOCCOCCOCCNC(=O)/C=C/c4[nH]cc(C(=O)N[C@@H](CC(N)=O)c5ccc(F)c(Cl)c5)c4-c4ccc(Cl)cc4F)ccc3F)cc2NC(=O)c2ccc(F)cc2C(F)(F)F)C[C@H](C)N1C
Effect on: thermal unfolding
Method: differential scanning fluorimetry
Concentration: 5.5 µM
Direction: higher = more unfolded
DCAF1: DDB1- and CUL4-associated factor 1 (DCAF1, Homo sapiens, UniProt Q9Y4B6)
Chain of UniProt Q9Y4B6 (whole entry, looked up): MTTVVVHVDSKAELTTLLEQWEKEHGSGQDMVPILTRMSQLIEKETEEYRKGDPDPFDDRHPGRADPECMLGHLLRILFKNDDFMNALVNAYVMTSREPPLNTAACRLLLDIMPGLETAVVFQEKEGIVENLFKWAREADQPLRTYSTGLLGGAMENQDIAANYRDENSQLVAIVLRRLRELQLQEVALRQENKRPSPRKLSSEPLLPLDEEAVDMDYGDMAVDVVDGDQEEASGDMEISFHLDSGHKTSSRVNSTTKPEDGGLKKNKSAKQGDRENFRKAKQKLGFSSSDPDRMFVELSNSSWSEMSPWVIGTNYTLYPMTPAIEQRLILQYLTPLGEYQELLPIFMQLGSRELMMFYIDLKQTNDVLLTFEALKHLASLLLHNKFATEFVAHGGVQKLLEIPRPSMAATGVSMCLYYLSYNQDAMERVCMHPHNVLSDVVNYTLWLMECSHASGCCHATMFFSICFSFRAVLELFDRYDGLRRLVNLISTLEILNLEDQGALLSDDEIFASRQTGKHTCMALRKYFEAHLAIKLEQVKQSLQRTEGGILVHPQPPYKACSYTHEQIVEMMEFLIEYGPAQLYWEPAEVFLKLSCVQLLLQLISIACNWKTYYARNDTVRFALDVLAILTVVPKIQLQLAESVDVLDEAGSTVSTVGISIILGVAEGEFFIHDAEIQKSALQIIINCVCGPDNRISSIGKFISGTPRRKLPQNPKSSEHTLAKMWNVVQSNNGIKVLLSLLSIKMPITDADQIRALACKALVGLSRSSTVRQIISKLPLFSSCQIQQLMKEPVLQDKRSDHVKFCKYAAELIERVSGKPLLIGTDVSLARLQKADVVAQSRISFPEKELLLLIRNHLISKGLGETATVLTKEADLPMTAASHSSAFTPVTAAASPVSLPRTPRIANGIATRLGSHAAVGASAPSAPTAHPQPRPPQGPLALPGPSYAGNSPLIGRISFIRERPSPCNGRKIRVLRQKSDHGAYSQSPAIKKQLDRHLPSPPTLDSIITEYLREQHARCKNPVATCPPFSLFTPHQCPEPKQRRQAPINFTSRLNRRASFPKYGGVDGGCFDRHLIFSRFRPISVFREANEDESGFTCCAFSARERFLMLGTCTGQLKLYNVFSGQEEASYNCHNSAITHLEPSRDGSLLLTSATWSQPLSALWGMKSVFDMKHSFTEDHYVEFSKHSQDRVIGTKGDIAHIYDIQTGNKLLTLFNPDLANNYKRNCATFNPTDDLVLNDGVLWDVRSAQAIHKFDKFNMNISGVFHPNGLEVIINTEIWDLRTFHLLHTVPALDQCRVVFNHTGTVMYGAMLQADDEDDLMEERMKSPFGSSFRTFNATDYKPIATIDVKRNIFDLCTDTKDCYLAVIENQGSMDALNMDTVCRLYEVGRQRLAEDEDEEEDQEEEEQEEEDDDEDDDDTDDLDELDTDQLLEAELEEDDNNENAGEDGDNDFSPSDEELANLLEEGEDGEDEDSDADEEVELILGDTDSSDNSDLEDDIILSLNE
WDR5: WD repeat-containing protein 5 (WDR5, Homo sapiens, UniProt P61964)
target | setting | SYPRO Orange fluorescence
DCAF1 | 36.4 °C | 10500 a.u.
WDR5 | 66.01 °C | 17500 a.u.
DCAF1 | 82.81 °C | 37800 a.u.
DCAF1 | 66.41 °C | 52300 a.u.
WDR5 | 48.6 °C | 15800 a.u.
WDR5 | 63.01 °C | 15400 a.u.
DCAF1 | 39 °C | 11100 a.u.

Set 3
Structure (SMILES): Cc1ncsc1-c1ccc(C(CO)NC(=O)C2CC(O)CN2C(=O)C(C(C)C)n2cc(-c3ccc(COc4c(-c5c(C)c(F)cc6[nH]ncc56)c(C5CC5)cc5c(N6CC7CC6CN7)nc(OC6CCOCC6)nc45)cc3)nn2)cc1 (stereo not shown)
Effect on: cell growth or viability
Method: ATP luminescence
Time: 6 days
cell line | setting | viability
T24 | 3 µM | 97% and 102% and 90.6% and 93.8%
ASPC1 | 10 nM | 64% and 69.5% and 62.1% and 77%
SK-CO-1 | 1 µM | 10.6% and 8.14% and 11.8% and 10.4%
GP5d | 0.1 µM | 39.1% and 26.6% and 46.3% and 25.5%
HT-29 | 0.3 µM | 87.7% and 84% and 96.2% and 128%
PSN1 | 1 µM | 98.8% and 83.5% and 94.1% and 94.4%
COLO 320 | 30 nM | 80.8% and 102% and 94.8% and 82.4%

Mixed results
Structure (SMILES) | cell line | setting | quantity | result
Cn1cc(-c2cccc(CN3CCC4(CC3)COc3c4ccc4c3CN([C@H]3CCC(=O)NC3=O)C4=O)c2)cn1 | Caco-2 | concentration not given | permeability (basolateral to apical) | 23.6%
